# Results pooled from the literature.
# Lines come from different studies, so protocols differ.
# Chain of UniProt O14920 (whole entry, looked up): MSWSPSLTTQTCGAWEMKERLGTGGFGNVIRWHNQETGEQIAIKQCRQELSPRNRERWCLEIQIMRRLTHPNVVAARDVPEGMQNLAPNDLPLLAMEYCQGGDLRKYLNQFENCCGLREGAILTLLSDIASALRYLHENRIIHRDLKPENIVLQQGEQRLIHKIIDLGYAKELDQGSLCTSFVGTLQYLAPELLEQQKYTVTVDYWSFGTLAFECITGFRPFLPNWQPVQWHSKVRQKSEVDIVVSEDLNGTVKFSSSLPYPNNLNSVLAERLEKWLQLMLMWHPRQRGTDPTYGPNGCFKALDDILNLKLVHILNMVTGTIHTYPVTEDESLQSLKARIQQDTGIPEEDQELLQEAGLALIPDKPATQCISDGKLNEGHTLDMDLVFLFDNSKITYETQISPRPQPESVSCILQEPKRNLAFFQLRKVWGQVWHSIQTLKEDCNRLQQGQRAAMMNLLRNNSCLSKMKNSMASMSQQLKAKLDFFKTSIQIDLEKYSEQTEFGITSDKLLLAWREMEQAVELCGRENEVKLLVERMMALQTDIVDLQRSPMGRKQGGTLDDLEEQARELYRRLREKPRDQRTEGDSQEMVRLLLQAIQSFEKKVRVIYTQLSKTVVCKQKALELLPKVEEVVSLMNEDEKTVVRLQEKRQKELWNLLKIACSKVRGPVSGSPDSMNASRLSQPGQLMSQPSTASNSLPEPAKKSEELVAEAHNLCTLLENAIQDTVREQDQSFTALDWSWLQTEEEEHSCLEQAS
Structure (SMILES),target or system,assay,test system,conditions,endpoint,value
CC(C)NCC(O)COc1cccc2ccccc12 (stereo not drawn),,,Caco-2,,Papp,43 ×10⁻⁶ cm/s
Cn1nc2c(=O)n(C3CC3)cnc2c1[C@](O)(c1cnc(C(F)(F)F)c(Cl)c1)C(F)(F)F,,,Caco-2,,Papp A→B,61.9 ×10⁻⁶ cm/s
CC(C)NCC(O)COc1cccc2ccccc12 (stereo not drawn),,,Caco-2,"10 µM, 2 h, pH 7.4",Papp A→B,21.2 ×10⁻⁶ cm/s
Cc1nn(C2CC2)c(=O)c2nn(C)c(Cc3ccc(C(F)(F)F)c(C#N)c3)c12,,,Caco-2,,Papp A→B,43.4 ×10⁻⁶ cm/s
O=c1cc(-c2ccc(O)c(O)c2)oc2cc(O)cc(O)c12,,,Caco-2,"100 µg/mL, 2 h",Papp B→A,4.22 ×10⁻⁶ cm/s
Cc1cc(C)c(CNC(=O)c2cc(Cl)c3c(c2C)O[C@@](C)([C@H]2CC[C@H](N(C)C)CC2)O3)c(=O)[nH]1,,,Caco-2,20 µM,Papp B→A,19.7 ×10⁻⁶ cm/s
C[C@H]1O[C@@H](O[C@H]2[C@@H](O)C[C@H](O[C@H]3[C@@H](O)C[C@H](O[C@H]4CC[C@@]5(C)[C@H](CC[C@@H]6[C@@H]5C[C@@H](O)[C@]5(C)[C@@H](C7=CC(=O)OC7)CC[C@]65O)C4)O[C@@H]3C)O[C@@H]2C)C[C@H](O)[C@@H]1O,,,Caco-2,"5 µM, 1 h",Papp B→A,8.3 ×10⁻⁶ cm/s
CC(C)NCC(O)COc1cccc2ccccc12 (stereo not drawn),,,Caco-2,"5 µM, 2 h",Papp B→A,13.2 ×10⁻⁶ cm/s
O=C(O)[C@H]1O[C@@H](Oc2cc3oc(-c4ccccc4)cc(=O)c3c(O)c2O)[C@H](O)[C@@H](O)[C@@H]1O,,,Caco-2,"100 µg/mL, 2 h",Papp B→A,3.24 ×10⁻⁶ cm/s
C[C@H]1O[C@@H](O[C@H]2[C@@H](O)C[C@H](O[C@H]3[C@@H](O)C[C@H](O[C@H]4CC[C@@]5(C)[C@H](CC[C@@H]6[C@@H]5C[C@@H](O)[C@]5(C)[C@@H](C7=CC(=O)OC7)CC[C@]65O)C4)O[C@@H]3C)O[C@@H]2C)C[C@H](O)[C@@H]1O,,,Caco-2,"5 µM, 2 h",Papp B→A,13.7 ×10⁻⁶ cm/s
CNc1ncc2c(/C=C/C(=O)N3CCC(OC)CC3)nn(Cc3cccc(C(F)(F)F)c3)c2n1,"Inhibitor of nuclear factor kappa-B kinase subunit beta (IKBKB, Homo sapiens, UniProt O14920)","enzyme activity, inhibitor, radiometric",,1 µM,remaining activity,101%
Cn1nc2c(=O)n(C3CC3)ncc2c1[C@](O)(c1cnc(C(F)(F)F)c(Cl)c1)C(F)(F)F,,,Caco-2,,Papp B→A,70.5 ×10⁻⁶ cm/s
